Results gathered from unrelated publications.
Each line is one published result; not all experiments were run side by side. ± marks the error that the study gave.
HDAC11: Histone deacetylase 11 (HDAC11, Homo sapiens, UniProt Q96DB2)
Sequence of UniProt Q96DB2 (whole entry, looked up): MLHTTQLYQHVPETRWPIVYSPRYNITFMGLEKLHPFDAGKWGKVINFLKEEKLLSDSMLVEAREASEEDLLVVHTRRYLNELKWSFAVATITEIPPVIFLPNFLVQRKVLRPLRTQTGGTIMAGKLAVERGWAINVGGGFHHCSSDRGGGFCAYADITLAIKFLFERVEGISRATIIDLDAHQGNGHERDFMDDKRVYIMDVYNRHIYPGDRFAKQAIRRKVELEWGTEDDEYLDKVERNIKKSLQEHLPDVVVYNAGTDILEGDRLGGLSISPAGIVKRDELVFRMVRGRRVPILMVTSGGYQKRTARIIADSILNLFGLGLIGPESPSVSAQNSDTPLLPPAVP
CDK4: Cyclin-dependent kinase 4 (CDK4, Homo sapiens, UniProt P11802)
Sequence of UniProt P11802 (whole entry, looked up): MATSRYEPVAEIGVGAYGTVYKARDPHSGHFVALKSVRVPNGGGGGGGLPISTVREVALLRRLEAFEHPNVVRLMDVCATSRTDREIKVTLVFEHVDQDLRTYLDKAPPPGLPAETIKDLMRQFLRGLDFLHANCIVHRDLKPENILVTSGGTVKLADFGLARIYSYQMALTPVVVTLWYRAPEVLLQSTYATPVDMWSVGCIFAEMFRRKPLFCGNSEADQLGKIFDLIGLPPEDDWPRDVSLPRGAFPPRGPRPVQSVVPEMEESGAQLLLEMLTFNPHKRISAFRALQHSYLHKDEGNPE
DDR2: Discoidin domain-containing receptor 2 (DDR2, Homo sapiens, UniProt Q16832)
Sequence of UniProt Q16832 (whole entry, looked up): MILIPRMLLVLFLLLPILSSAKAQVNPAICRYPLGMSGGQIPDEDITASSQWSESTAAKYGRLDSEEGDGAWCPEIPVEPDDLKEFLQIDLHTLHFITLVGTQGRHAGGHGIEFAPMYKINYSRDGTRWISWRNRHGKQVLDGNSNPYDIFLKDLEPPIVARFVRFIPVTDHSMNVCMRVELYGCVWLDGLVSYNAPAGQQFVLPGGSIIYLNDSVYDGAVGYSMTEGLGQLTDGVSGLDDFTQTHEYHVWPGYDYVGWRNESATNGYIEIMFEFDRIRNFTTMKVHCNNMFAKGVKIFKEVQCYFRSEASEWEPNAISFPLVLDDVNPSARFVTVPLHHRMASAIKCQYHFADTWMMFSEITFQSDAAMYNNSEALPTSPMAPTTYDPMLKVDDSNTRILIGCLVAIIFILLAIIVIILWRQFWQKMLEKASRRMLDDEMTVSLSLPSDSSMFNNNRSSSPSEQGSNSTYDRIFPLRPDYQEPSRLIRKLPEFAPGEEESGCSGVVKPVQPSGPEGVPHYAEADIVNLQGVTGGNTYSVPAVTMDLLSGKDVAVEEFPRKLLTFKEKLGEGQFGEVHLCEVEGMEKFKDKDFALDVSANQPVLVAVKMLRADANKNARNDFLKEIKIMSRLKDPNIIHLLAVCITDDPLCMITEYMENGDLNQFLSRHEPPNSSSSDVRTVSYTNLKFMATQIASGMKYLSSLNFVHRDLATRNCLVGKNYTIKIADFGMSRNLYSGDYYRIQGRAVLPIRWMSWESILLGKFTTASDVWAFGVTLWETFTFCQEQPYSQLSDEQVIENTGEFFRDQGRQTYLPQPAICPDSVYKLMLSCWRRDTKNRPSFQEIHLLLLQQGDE
GNRHR: Gonadotropin-releasing hormone receptor (GNRHR, Homo sapiens, UniProt P30968)
Sequence of UniProt P30968 (whole entry, looked up): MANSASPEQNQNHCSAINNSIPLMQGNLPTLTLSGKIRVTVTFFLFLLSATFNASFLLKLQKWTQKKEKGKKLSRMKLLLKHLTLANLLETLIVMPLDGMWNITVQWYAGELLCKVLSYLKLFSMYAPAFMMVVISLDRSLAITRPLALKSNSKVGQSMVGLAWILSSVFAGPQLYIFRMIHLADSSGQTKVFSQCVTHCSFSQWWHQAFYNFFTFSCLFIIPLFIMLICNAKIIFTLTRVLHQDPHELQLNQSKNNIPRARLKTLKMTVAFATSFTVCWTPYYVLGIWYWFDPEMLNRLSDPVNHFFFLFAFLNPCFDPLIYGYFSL
SIRT5: NAD-dependent protein deacylase sirtuin-5, mitochondrial (SIRT5, Homo sapiens, UniProt Q9NXA8)
Sequence of UniProt Q9NXA8 (whole entry, looked up): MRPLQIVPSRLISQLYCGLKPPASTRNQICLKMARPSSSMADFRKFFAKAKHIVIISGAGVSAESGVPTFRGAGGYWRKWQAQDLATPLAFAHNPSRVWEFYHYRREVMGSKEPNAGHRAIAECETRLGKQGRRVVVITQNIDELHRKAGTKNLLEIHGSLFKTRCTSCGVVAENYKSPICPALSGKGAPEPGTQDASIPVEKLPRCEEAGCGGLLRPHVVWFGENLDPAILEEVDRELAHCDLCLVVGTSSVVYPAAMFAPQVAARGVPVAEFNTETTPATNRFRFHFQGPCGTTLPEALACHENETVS
MARS2: Methionine--tRNA ligase, mitochondrial (MARS2, Homo sapiens, UniProt Q96GW9)
MAOA: Amine oxidase [flavin-containing] A (MAOA, Homo sapiens, UniProt P21397)
Sequence of UniProt P21397 (whole entry, looked up): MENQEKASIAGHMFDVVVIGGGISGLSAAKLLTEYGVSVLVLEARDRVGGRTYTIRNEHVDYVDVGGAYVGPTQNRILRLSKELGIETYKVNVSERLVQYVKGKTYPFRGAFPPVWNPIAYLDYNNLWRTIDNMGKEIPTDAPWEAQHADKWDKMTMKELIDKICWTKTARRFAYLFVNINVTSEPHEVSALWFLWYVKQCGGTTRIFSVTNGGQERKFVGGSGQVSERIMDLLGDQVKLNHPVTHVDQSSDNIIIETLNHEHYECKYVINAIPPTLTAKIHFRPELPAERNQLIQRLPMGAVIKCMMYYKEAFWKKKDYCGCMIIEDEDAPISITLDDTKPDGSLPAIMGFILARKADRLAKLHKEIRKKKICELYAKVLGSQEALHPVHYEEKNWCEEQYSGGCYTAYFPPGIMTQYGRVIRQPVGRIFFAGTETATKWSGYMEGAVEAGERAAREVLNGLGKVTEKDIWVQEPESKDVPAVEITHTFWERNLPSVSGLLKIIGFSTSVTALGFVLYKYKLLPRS
Gria2: Glutamate receptor 2 (Gria2, Rattus norvegicus, UniProt P19491)
Sequence of UniProt P19491 (whole entry, looked up): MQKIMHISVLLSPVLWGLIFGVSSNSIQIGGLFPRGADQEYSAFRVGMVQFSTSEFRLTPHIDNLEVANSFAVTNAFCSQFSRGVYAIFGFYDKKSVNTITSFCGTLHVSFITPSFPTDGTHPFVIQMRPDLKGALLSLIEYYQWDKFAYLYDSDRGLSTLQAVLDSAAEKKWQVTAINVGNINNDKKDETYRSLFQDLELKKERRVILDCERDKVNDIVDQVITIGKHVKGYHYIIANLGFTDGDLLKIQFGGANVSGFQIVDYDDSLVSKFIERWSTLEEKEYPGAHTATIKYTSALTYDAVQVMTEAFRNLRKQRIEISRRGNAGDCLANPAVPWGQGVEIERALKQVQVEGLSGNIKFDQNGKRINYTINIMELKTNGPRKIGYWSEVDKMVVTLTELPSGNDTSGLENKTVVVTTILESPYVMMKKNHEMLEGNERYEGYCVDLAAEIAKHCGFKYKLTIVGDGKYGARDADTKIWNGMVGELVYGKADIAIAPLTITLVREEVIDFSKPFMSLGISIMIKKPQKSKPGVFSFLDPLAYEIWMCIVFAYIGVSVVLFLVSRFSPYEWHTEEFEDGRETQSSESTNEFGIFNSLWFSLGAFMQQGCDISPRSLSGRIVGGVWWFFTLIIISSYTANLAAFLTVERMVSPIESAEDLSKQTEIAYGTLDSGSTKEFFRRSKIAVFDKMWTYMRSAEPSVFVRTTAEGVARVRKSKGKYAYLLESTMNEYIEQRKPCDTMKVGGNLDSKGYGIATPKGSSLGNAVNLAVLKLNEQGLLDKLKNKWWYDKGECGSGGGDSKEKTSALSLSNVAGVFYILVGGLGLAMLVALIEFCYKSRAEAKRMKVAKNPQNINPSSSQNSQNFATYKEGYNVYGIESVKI
HDAC4: Histone deacetylase 4 (HDAC4, Homo sapiens, UniProt P56524)
Sequence of UniProt P56524 (whole entry, looked up): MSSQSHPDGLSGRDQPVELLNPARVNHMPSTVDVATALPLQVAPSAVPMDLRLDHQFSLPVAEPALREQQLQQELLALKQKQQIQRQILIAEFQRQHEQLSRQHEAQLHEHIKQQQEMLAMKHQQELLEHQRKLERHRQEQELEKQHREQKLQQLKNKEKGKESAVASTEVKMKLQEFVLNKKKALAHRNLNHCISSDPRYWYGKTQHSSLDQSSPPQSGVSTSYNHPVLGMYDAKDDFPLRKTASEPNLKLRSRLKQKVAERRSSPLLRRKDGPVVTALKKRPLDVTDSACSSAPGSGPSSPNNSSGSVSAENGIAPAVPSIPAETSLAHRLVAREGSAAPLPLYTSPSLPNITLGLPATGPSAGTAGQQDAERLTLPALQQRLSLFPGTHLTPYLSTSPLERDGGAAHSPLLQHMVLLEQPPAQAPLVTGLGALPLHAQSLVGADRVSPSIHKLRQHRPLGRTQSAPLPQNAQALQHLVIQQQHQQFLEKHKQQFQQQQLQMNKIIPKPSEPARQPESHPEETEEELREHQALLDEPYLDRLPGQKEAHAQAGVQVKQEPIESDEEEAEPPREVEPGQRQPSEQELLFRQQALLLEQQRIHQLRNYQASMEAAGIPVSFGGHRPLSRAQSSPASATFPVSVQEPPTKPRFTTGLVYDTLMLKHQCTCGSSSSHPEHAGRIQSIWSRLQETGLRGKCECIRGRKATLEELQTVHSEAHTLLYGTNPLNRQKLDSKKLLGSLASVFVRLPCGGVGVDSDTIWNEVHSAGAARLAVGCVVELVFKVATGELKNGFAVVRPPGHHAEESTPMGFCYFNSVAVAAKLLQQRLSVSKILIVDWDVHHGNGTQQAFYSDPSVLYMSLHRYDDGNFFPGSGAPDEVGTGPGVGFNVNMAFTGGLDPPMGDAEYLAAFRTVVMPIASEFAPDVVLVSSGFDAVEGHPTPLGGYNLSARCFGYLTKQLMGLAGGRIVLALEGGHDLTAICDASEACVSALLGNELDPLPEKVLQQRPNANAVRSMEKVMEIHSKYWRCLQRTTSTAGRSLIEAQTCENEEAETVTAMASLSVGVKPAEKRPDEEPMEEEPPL
VKORC1: Vitamin K epoxide reductase complex subunit 1 (VKORC1, Homo sapiens, UniProt Q9BQB6)
Sequence of UniProt Q9BQB6 (whole entry, looked up): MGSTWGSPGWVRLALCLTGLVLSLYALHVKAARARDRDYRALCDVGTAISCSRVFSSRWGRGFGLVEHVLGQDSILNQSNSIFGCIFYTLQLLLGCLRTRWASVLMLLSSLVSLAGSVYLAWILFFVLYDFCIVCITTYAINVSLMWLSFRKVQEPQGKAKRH
Sequence of UniProt Q13148 (102-269, looked up): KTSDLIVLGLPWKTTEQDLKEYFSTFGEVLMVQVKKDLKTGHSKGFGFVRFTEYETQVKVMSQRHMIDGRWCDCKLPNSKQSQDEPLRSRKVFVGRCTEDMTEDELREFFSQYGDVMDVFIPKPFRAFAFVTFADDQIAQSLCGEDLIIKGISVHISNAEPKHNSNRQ

SMILES	target or system	assay	test system	conditions	scale	quantity	result
C=CC[C@@H]1NC(=O)CCSCc2ccc(cc2)CSCCCNC(=O)[C@H](CCCCCC(=O)N(O)CCCCCC)NC1=O	HDAC11	enzyme activity, inhibitor, fluorescence				IC50	0.56 µM
CN1CCc2cc(Br)c(O)cc2C(c2ccc(NC(=O)CCOCCOCCOCCOCCN=[N+]=[N-])cc2)C1 (stereo not shown)	DRD1 (Homo sapiens, UniProt P21728)	cell-based				IC50	0.141 µM
COC(=O)CCCCCC(=O)Nc1ccc(Nc2ncc(F)c(-c3cc(F)c4nc(C)n(C(C)C)c4c3)n2)cc1	CDK4					IC50	0.0021 µM
CC1=CC(C)=[N+]2C1=C(CCCCc1cn(CC(=O)N3CCc4nc(NC(=O)[C@H]5CCN(C#N)C5)sc4C3)nn1)c1c(C)cc(C)n1[B-]2(F)F	UCHL1 (Homo sapiens, UniProt P09936)	enzyme activity, inhibitor, fluorescence		with preincubation		IC50	1.2 µM
Cc1nn(-c2cccc(N)c2)c(=O)c2cnc(Nc3ccc(N4CCNCC4)cc3)nc12	PASK (Homo sapiens, UniProt Q96RG2)	enzyme activity, inhibitor				IC50	> 10 µM
O=C(CN1CN(c2ccc(Cl)c(Cl)c2)C2(CCN(C(=O)c3ccc4[nH]ncc4c3)CC2)C1=O)NCC(F)(F)F	DDR2	ligand displacement				IC50	28.6 µM
COC(=O)CCCCCCCNC(=O)Cc1ccc(Nc2ncc(F)c(-c3cc(F)c4nc(C)n(C(C)C)c4c3)n2)cc1	CDK4					IC50	0.003 µM
O=C(CN1CN(c2cccc(C(F)(F)F)c2)C2(CCN(C(=O)c3cnc4[nH]ncc4c3)CC2)C1=O)NCC(F)(F)F	DDR2	ligand displacement				IC50	13.3 µM
CC(C)C[C@H](NC(=O)[C@@H](CCCCNC(=O)[C@@H](Cc1ccccc1)NC(=O)CCCCCCCNC(=O)CN1CCN(CC(=O)O)CCN(CC(=O)O)CCN(CC(=O)O)CC1)NC(=O)[C@H](Cc1ccc(O)cc1)NC(=O)[C@H](CO)NC(=O)[C@H](Cc1c[nH]c2ccccc12)NC(=O)[C@H](Cc1c[nH]cn1)NC(=O)[C@@H]1CCC(=O)N1)C(=O)N[C@@H](CCCNC(=N)N)C(=O)N1CCC[C@H]1C(=O)NCC(N)=O	GNRHR	ligand displacement, radioligand		pH 7.4, cell membranes		IC50	0.0066 µM
COC1CN([C@H]2CC[C@H]([C@@]3(C)Oc4c(Cl)cc(C(=O)NCc5c(SC)cc(C)[nH]c5=O)c(C)c4O3)CC2)C1		RNA-seq, item: NRTN	human, whole blood	dose not given, 24 h	baseline: pretreatment baseline	log2 fold change	3.53
O=C(CCC(=O)NC(CCCCNC(=S)NCCc1nnn[nH]1)C(=O)NC(Cc1c[nH]c2ccccc12)C(=O)NC1CCC1)NCCOCCOCCCCCCCl (stereo not shown)	SIRT5	enzyme activity, inhibitor				IC50	0.024 ± 0.002 µM
COC(=O)CCCCCC(=O)NCc1ccc(Nc2ncc(F)c(-c3cc(F)c4nc(C)n(C(C)C)c4c3)n2)cc1	CDK4					IC50	0.0011 µM
Clc1cc(Cl)cc(CNCCCNc2nc3ncccc3[nH]2)c1	MARS2	enzyme activity, inhibitor				IC50	< 0.013 µM
COc1cc(C(=O)/C=C/c2ccc(C(C)C)cc2)cc(OC)c1OC	MAOA	enzyme activity, inhibitor				IC50	> 40 µM
Cc1cc(O)c2c(c1)C(=O)c1cc(O)c(S(=O)(=O)O)c(O)c1C2=O	MAOA	enzyme activity, inhibitor				IC50	> 100 µM
CCCCCCN(O)C(=O)CCCCC[C@@H]1NC(=O)[C@H](CCSC)NC(=O)CCSCc2cccc(n2)CSCCNC(=O)[C@H](Cc2ccc(Cl)cc2Cl)NC1=O	HDAC11	enzyme activity, inhibitor, fluorescence				IC50	0.21 µM
O=C(O)Cc1cc2c(cc1C(=O)c1ccccc1)OCO2	Gria2	ion current, patch clamp				IC50	5.36 µM
CCN(CC)CC(=O)Nc1cccc(-n2cc(-c3ccc4ccc(-c5cn(-c6cccc(NC(=O)CN(CC)CC)c6)nn5)cc4c3)nn2)c1	FGFR4 (Homo sapiens, UniProt P22455)	enzyme activity, inhibitor				IC50	> 10 µM
C#CCNc1c2c([nH]c(=O)c1C(=O)OCC)CCC2	Gag-Pol polyprotein, reverse transcriptase (gag-pol, Human immunodeficiency virus 1, UniProt P03366)	enzyme activity, inhibitor				IC50	> 100 µM
Cc1nc2c(F)cc(-c3nc(Nc4ccc(CC(=O)NCCCCC(=O)NO)cc4)ncc3F)cc2n1C(C)C	CDK4					IC50	0.002 µM
COC(=O)Cc1cc2c(cc1C(=O)c1ccccc1Cl)OCO2	Gria2	glutamate-evoked current, inhibitor, whole-cell patch clamp	HEK293T, homomeric receptor			IC50	5.01 µM
C=CC(=O)N1C[C@H](C)N(c2nc(OC[C@@]34CCCN3C[C@H](F)C4)nc3c(F)c(-c4ccc(F)c5sc(N)c(C#N)c45)c(C(F)(F)F)cc23)C[C@H]1C	GTPase KRas, GppNHp; with RAF1 RBD (KRAS, Homo sapiens, UniProt P01116, Q61H)					IC50	3.1 ± 0.83 µM
COC(=O)CCCCNC(=O)Cc1ccc(Nc2ncc(F)c(-c3cc(F)c4nc(C)n(C(C)C)c4c3)n2)cc1	CDK4					IC50	0.0016 µM

SMILES	target or system	assay	test system	conditions	scale	quantity	result
O=C(Cc1ccc(OCc2ccccc2)cc1)NC1(C(=O)O)CCN(C(=O)c2ccc(-c3cccc(Cl)c3)cc2)CC1	GNRHR	IP-1 accumulation, antagonist				IC50	> 10 µM
N#Cc1cccc(N2CN(CC(=O)NCC(F)(F)F)C(=O)C23CCN(C(=O)c2cnc4[nH]ncc4c2)CC3)c1	DDR2	ligand displacement				IC50	56.9 µM
OCC1OC(n2cnc3c(NCc4ccc(Br)s4)ncnc32)C(O)C1O (stereo not shown)	ADORA2A (Homo sapiens, UniProt P29274)	ligand displacement, radioligand				IC50	3.03 µM
Clc1ccc(CC2CON=C(c3cc(Cl)nnc3Oc3cccc(C4CC4)c3)N2)c(Cl)c1 (stereo not shown)	serine palmitoyltransferase (Botrytis cinerea, UniProt A0A384JAG3+A0A384JQT2)					IC50	0.005 µM
O=C1CCC(N2C(=O)c3ccc(N4CC(C(=O)N5CC(CN6CCC(CNC(=O)c7cccc(-c8noc(C(F)(F)F)n8)c7)(c7nc(-c8ccccc8)cs7)CC6)C5)C4)cc3C2=O)C(=O)N1 (stereo not shown)	HDAC4					IC50	1.29 µM
Sc1nc[nH]n1	TAR DNA-binding protein 43, residues 102-269 (TARDBP, Homo sapiens, UniProt Q13148)	protein-RNA binding, inhibitor, fluorescence polarization		40 nM protein, added: 10 nM RNA		IC50	7.69 ± 2.18 µM
Cc1nc2c(F)cc(-c3nc(Nc4ccc(NC(=O)CCCCCCCC(=O)NO)cc4)ncc3F)cc2n1C(C)C	CDK4					IC50	0.0012 µM
CC(C)c1ccc(/C=C/C(=O)c2cccc(C(F)(F)F)c2)cc1	MAOA	enzyme activity, inhibitor				IC50	> 40 µM
Cc1ncsc1-c1ccc(C(C)NC(=O)C2CC(O)CN2C(=O)C(NC(=O)CCCCCCCCCCN2CCCC(Nc3ncc(Cl)c(Nc4ccccc4S(=O)(=O)C(C)C)n3)C2)C(C)(C)C)cc1 (stereo not shown)	22Rv1	RNA-seq, item: MTFR2 mRNA		concentration not given	baseline: DMSO	log2 fold change	-2.68
CCOc1cc(CN2CC3(CC(N4CCC(C(=O)O)CC4)=NO3)C2)cc(OCC)c1-c1ccc(F)cc1	SSTR5 (Homo sapiens, UniProt P35346, M116A)	cAMP level, antagonist, GloSensor	AD293	M116A mutant, bandwidth 3.29, added: CST17 EC80 and forskolin		IC50	2.57 µM
Cc1nc2c(F)cc(-c3nc(Nc4ccc(NC(=O)CCCCCCC(=O)NO)cc4)ncc3F)cc2n1C(C)C	CDK4					IC50	< 0.0012 µM
NC(=O)c1cccc(NC(=O)c2cc(-c3ccccc3)n(-c3ccccc3)n2)c1	Genome polyprotein, NS2B-NS3 protease (dengue virus type 2, UniProt P29990)	enzyme activity		added: AMC substrate 50 µM		IC50	> 50 µM
Cc1cc(NC2CCN(C)CC2)ccc1-c1cc2c(N3CCC[C@H](C(=O)NCc4ccc(OC(F)(F)F)cc4)C3)ncnc2[nH]1	MARK1 (Homo sapiens, UniProt Q9P0L2)	enzyme activity, inhibitor, ADP detection				IC50	> 8 µM
O=C(NO)c1cncc(OS(=O)(=O)Oc2ccc(Oc3ccccc3)cc2)c1	HDAC11					IC50	2.69 µM
CC(C)(COP(=O)(O)OP(=O)(O)OC[C@H]1O[C@@H](n2cnc3c(N)ncnc32)[C@H](O)[C@@H]1OP(=O)(O)O)[C@@H](O)C(=O)NCCC(=O)NCCSCC(=O)N[C@@H](CO)C(=O)NCC(=O)N[C@@H](CCCNC(=N)N)C(=O)NCC(=O)N[C@@H](CCCCN)C(=O)NCCCC[C@H](NC(=O)CC[C@@H]1NC(=O)[C@@H](CCCNC(=N)N)NC(=O)[C@H](CCCNC(=N)N)NC(=O)[C@@H](CCCNC(=N)N)NC(=O)[C@H](CCCNC(=N)N)NC(=O)[C@H](Cc2csc3ccccc23)NC(=O)[C@@H](Cc2ccccc2)NC(=O)[C@H](Cc2ccccc2)NC1=O)C(N)=O	NAA40 (Homo sapiens, UniProt Q86UY6)	enzyme activity, inhibitor, fluorescence				IC50	0.078 µM
CCCC[C@H](NC(=O)[C@@H]1CCCN1C(=O)[C@H](CCCNC(=N)N)NC(=O)[C@H](CS)NC(=O)[C@H](Cc1c[nH]c2ccccc12)NC(=O)[C@H](CCCNC(=N)N)NC(=O)[C@@H](Cc1ccccc1)NC(=O)[C@H](Cc1c[nH]cn1)NC(=O)[C@H](CCC(=O)O)NC(=O)[C@H](CS)NC(=O)[C@H](CS)NC(C)=O)C(=O)NCC(=O)NCC(N)=O	Mc1r (Mus musculus, UniProt Q01727)	ligand displacement, radioligand				IC50	0.0041 µM
CC(C(=O)N1CCCC1c1cc2nc3c(c(O)n2n1)CCCC3)n1cncn1 (stereo not shown)	VKORC1	carboxylation, inhibitor, cell-based				IC50	19.3 µM
COC(=O)Cc1cc2c(cc1C(=O)c1cccc(I)c1)OCO2	Gria2	glutamate-evoked current, inhibitor, whole-cell patch clamp	HEK293T, homomeric receptor			IC50	5.62 µM
O=C(O)CCNC(=S)NCCCC[C@H](NS(=O)(=O)c1cccc(F)c1)C(=O)N[C@@H](Cc1c[nH]c2ccccc12)C(=O)NC1CCC1	SIRT5	inhibitor, fluorogenic		0 h preincubation, non-tagged enzyme 150 nM, added: NAD+ 500 µM		IC50	0.074 ± 0.005 µM
O=C(CN1CN(c2ccccc2)C2(CCN(C(=O)c3ccc4[nH]ncc4c3)CC2)C1=O)NCC(F)(F)F	DDR2	ligand displacement				IC50	0.82 µM
Fc1ccc2nc(NCCCN[C@@H]3CCNc4c(Cl)cc(Cl)cc43)[nH]c2n1	MARS2	enzyme activity, inhibitor				IC50	< 0.013 µM
CC1CC(C)CN(C(=O)Cn2ncc3cccn3c2=O)C1 (stereo not shown)	VKORC1	carboxylation, inhibitor, ELISA	HEK293 stably expressing	24 h, added: vitamin K epoxide 5 µM		IC50	5.53 µM
O=C(CCc1ccc(CNC(C(=O)OC2CCCC2)C2CCCCC2)cn1)NO (stereo not shown)	HDAC4	enzyme activity, inhibitor				IC50	> 10 µM
